Measurements pooled from the literature.
Lines come from different studies, so protocols differ. ± gives the spread as reported.
Target: Mu-type opioid receptor (Oprm1, Rattus norvegicus, UniProt P33535)
Sequence of UniProt P33535 (whole entry, looked up): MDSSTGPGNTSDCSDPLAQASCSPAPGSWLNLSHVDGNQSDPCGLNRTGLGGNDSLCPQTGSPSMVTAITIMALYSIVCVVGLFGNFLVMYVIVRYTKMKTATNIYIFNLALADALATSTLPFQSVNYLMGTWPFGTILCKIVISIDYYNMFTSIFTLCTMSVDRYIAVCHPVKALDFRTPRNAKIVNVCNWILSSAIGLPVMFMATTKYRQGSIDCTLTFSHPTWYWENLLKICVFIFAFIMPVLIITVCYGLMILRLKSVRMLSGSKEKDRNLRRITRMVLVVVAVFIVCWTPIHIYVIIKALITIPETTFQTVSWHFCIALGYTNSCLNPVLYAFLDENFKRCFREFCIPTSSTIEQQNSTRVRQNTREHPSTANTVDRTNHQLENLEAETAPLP

SMILES	observed	mode	technique	setting	quantity	result
Cc1cc(O)cc(C)c1CC(N)C(=O)NC1CCNc2ccc(CN3CCc4ccccc4C3)cc21 (stereo not drawn)	GTPγS binding	agonist	radiometric	cell membranes	EC50	0.4 nM
CCOC(=O)c1cc(Cc2ccccc2)cc2c1NCCC2NC(=O)C(N)Cc1c(C)cc(O)cc1C (stereo not drawn)	GTPγS binding	agonist	radiometric	cell membranes	EC50	4.9 nM
CCCC[C@H](NC(=O)[C@H](Cc1ccccc1)NC(=O)CNC(=O)[C@@H](C)NC(=O)[C@@H](N)Cc1ccc(O)cc1)C(=O)N1CCC[C@H]1C(=O)N[C@@H](CC(C)C)C(=O)N[C@@H](CO[C@@H]1O[C@H](CO)[C@@H](O)[C@H](O)[C@H]1O)C(=O)N[C@@H](Cc1c[nH]c2ccccc12)C(=O)NCc1cc(C(F)(F)F)cc(C(F)(F)F)c1	ligand displacement	–	radioligand	–	IC50	60.3 nM
Cc1cc(O)cc(C)c1CC(N)C(=O)NC1CCNc2ccc(Cc3ccc4c(c3)OCO4)cc21 (stereo not drawn)	GTPγS binding	agonist	radiometric	cell membranes	EC50	14 nM
Cc1cc(O)cc(C)c1CC(N)C(=O)NC1CCNc2c1cc(Cc1ccccc1)cc2C(F)(F)F (stereo not drawn)	GTPγS binding	agonist	radiometric	cell membranes	EC50	1.8 nM
CCCC[C@@H]1NC(=O)[C@H](Cc2ccccc2)NC(=O)CNC(=O)[C@H](NC(=O)[C@@H](N)Cc2ccc(O)cc2)C(C)(C)SSC(C)(C)[C@H](C(=O)N[C@@H](Cc2c[nH]c3ccccc23)C(=O)NCc2cc(C(F)(F)F)cc(C(F)(F)F)c2)NC(=O)[C@@H]2CCCN2C1=O	–	–	–	–	IC50	2040 nM
Cc1cc(O)cc(C)c1C[C@H](N)C(=O)N[C@@H](C(=O)NCC(=O)N[C@@H](Cc1ccc2ccccc2c1)C(=O)N[C@@H](CC(C)C)C(=O)N[C@@H](CO)C(N)=O)[C@H](C)O	GTPγS binding	agonist	radiometric	cell membranes	EC50	1.5 nM
Cc1cc(O)cc(C)c1CC(N)C(=O)NC1CCNc2c(C)cc(Cc3ccccc3)cc21 (stereo not drawn)	GTPγS binding	agonist	radiometric	cell membranes	EC50	4.2 nM
Cc1cc(O)cc(C)c1CC(N)C(=O)NC1CCNc2ccc(Cc3ccc4ncccc4c3)cc21 (stereo not drawn)	GTPγS binding	agonist	radiometric	cell membranes	EC50	23 nM
Cc1cc(O)cc(C)c1CC(N)C(=O)NC1CCNc2c(C(=O)O)cc(Cc3ccccc3)cc21 (stereo not drawn)	GTPγS binding	agonist	radiometric	cell membranes	EC50	4.4 nM
Cc1cc(O)cc(C)c1CC(N)C(=O)NC1CCNc2ccc(CN3CCC4CCCCC4C3)cc21 (stereo not drawn)	GTPγS binding	agonist	radiometric	cell membranes	EC50	2 nM
O=C1N[C@@H](Cc2ccccc2)C(=O)N2CCC[C@@H]2C(=O)N[C@@H](Cc2ccccc2)C(=O)N[C@H]1Cc1c[nH]c2ccccc12	–	antagonist	–	–	Kb	10.2 ± 1.7 nM

Excerpt of the above:
SMILES	observed	mode	technique	setting	quantity	result
Cc1cc(O)cc(C)c1CC(N)C(=O)NC1CCNc2c1cc(Cc1ccccc1)cc2C(F)(F)F (stereo not drawn)	GTPγS binding	agonist	radiometric	cell membranes	EC50	1.8 nM
